Assay results gathered from unrelated publications.
Protocols differ between the studies behind these lines. ± gives the spread as reported.
Spike glycoprotein: Spike glycoprotein (MERS-CoV, UniProt K9N5Q8)
Cacna1b with α2δ, β3 subunits: Voltage-dependent N-type calcium channel subunit alpha-1B, with α2δ, β3 subunits (Cacna1b, Rattus norvegicus, UniProt Q02294)
Spike glycoprotein Beta variant: Spike glycoprotein, Beta variant (Severe acute respiratory syndrome coronavirus 2, UniProt P0DTC2)
bglR: Beta-glucuronidase (bglR, Clostridium perfringens, UniProt Q8XP19)

The chains behind the UniProt entries cited, without tags or fusion partners. Where a name states a change or a piece, a line headed by the entry shows the natural chain unless it says otherwise.
UniProt Q02294, whole entry, looked up: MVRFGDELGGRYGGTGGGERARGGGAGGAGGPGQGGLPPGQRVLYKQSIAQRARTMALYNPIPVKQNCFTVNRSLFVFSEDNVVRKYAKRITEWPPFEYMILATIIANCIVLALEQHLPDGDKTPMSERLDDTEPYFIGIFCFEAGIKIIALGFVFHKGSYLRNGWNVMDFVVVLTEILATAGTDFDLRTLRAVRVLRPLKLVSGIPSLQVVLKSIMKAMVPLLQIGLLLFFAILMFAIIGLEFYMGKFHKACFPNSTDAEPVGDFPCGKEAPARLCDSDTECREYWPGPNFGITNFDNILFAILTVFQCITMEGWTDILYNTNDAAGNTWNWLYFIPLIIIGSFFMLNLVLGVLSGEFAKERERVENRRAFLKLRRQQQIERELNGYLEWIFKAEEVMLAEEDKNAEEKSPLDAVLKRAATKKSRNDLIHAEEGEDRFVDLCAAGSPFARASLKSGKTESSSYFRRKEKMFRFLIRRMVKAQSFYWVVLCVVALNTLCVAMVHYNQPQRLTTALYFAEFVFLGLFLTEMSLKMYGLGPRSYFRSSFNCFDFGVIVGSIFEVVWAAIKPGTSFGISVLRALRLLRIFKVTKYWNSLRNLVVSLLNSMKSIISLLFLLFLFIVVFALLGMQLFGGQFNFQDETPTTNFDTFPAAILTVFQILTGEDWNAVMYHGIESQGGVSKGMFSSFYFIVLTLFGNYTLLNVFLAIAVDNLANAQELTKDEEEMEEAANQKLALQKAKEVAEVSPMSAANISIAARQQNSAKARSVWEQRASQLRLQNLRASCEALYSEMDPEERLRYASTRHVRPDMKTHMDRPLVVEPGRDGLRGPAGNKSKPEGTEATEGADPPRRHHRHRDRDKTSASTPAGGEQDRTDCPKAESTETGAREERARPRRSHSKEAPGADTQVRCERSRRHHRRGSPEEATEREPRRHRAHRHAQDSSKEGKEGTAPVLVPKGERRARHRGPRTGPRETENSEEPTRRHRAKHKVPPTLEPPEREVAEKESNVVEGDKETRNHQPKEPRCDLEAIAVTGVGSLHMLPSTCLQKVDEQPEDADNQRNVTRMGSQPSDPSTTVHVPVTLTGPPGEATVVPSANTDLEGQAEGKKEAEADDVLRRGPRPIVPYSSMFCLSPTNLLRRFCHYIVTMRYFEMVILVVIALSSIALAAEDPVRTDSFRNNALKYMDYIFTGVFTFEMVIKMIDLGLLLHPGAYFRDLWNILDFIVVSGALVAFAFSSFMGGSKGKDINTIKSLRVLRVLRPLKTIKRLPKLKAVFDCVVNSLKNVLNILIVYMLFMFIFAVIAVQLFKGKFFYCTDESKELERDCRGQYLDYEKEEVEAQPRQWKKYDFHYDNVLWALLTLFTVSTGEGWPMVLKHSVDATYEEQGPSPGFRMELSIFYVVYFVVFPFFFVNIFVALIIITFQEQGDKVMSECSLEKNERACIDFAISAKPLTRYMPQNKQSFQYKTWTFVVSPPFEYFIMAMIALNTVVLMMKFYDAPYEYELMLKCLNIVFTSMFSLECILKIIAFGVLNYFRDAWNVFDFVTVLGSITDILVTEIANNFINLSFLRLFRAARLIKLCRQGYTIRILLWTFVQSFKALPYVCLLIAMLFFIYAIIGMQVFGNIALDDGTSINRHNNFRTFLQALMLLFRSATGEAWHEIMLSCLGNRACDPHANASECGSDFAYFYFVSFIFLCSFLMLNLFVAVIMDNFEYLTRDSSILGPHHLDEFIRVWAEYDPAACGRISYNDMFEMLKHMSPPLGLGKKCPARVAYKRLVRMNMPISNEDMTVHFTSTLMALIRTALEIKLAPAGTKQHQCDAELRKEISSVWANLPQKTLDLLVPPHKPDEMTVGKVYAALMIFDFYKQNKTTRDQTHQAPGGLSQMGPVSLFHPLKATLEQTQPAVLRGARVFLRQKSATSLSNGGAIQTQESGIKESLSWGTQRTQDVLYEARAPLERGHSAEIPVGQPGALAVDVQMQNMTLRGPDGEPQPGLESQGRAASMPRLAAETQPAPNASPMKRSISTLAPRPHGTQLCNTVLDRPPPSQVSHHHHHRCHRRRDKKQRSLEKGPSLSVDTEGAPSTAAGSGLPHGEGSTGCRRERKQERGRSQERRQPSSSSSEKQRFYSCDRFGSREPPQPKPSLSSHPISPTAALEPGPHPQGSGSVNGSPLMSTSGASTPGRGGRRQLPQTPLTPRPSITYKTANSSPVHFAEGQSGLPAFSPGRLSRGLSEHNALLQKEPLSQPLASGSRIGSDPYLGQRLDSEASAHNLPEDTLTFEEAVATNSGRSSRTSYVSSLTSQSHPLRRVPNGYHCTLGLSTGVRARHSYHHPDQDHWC
UniProt P23975, whole entry: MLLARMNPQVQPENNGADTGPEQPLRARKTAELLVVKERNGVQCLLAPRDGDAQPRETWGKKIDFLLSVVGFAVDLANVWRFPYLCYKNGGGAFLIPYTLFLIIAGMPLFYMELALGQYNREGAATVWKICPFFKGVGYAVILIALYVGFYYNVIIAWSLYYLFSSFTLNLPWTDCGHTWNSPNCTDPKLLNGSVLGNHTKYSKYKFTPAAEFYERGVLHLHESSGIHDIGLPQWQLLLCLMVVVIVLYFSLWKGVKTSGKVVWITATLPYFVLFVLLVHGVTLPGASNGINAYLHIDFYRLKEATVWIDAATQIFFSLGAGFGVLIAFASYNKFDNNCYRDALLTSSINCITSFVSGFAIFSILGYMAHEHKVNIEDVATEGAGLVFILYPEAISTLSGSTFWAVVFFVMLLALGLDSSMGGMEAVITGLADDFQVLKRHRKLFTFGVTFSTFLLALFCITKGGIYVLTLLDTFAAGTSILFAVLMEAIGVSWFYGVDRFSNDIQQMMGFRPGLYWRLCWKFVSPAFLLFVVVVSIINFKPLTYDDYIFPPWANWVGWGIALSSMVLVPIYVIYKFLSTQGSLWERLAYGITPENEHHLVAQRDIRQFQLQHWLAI
UniProt P04775, whole entry: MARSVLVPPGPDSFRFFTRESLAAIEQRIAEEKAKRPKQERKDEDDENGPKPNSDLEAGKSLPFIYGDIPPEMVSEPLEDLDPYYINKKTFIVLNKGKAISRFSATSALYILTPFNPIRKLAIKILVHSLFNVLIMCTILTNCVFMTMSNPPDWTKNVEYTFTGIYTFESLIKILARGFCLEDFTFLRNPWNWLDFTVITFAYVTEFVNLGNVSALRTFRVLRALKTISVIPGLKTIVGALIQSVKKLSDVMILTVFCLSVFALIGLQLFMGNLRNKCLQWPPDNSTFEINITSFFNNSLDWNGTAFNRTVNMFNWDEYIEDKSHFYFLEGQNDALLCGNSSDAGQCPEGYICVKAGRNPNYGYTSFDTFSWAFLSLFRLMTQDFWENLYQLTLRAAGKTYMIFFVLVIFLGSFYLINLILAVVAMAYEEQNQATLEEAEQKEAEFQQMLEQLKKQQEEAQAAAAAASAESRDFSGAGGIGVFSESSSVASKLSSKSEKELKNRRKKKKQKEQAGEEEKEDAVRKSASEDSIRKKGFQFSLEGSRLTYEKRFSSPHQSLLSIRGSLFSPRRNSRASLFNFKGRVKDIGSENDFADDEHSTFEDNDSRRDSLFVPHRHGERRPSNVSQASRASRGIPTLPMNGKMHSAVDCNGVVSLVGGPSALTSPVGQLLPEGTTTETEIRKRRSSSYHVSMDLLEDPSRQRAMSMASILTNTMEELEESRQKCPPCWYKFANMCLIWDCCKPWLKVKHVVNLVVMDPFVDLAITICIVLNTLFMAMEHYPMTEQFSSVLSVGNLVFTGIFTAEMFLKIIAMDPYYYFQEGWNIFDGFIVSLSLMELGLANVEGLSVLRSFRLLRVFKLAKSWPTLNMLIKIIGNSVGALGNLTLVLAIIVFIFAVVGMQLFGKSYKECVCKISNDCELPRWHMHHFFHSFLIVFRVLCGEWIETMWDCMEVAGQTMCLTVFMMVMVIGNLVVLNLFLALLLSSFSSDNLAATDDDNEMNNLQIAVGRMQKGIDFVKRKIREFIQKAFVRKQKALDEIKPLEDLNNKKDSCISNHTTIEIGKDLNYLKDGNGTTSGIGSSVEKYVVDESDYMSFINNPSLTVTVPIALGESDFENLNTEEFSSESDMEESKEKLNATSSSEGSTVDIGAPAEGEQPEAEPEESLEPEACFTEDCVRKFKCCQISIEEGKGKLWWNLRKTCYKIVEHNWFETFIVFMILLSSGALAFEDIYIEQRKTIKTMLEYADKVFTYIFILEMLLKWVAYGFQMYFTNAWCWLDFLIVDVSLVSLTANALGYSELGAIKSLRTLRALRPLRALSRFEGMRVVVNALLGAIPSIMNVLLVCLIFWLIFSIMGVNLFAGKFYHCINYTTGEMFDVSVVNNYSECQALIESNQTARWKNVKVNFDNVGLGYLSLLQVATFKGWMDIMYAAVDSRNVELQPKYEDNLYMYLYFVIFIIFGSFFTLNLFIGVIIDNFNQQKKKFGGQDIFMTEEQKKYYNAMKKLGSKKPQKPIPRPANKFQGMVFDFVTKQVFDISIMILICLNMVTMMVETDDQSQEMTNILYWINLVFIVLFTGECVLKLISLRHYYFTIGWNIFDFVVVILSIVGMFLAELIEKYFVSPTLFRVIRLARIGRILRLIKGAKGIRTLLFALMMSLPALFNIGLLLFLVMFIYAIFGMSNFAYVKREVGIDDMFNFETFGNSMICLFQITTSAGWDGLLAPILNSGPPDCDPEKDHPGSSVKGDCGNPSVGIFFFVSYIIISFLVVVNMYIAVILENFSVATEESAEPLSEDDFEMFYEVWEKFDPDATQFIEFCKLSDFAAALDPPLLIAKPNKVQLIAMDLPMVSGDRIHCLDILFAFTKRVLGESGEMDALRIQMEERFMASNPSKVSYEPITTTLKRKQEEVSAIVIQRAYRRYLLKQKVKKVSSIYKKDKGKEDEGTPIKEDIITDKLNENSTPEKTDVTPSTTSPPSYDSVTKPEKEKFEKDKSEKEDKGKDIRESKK

| SMILES | target | test | system | conditions | IC50 [nM] |
| --- | --- | --- | --- | --- | --- |
| CC[C@H](C)[C@H](NC(=O)[C@H](C)NC(=O)[C@H](CCC(=O)O)NC(=O)[C@H](CCC(=O)O)NC(=O)[C@H](CC(C)C)NC(=O)[C@H](CCCCN)NC(=O)[C@H](CCCCN)NC(=O)[C@H](CCSC)NC(=O)[C@H](CCC(=O)O)NC(=O)[C@H](Cc1ccc(O)cc1)NC(=O)[C@H](CCC(=O)O)NC(=O)[C@H](CC(C)C)NC(=O)[C@H](CC(=O)O)NC(=O)[C@H](CC(C)C)NC(=O)[C@H](Cc1ccccc1)NC(=O)[C@@H](NC(=O)[C@@H](NC(=O)[C@H](CC(N)=O)NC(=O)[C@@H](NC(=O)[C@H](CCC(N)=O)NC(=O)[C@H](CC(=O)O)NC(=O)[C@H](CC(C)C)NC(=O)[C@@H](N)CO)[C@@H](C)CC)C(C)C)[C@@H](C)O)C(=O)N[C@@H](CCCCN)C(=O)N[C@@H](CCCCN)C(=O)N[C@@H](CC(C)C)C(=O)N[C@@H](CCC(=O)O)C(=O)N[C@@H](CCC(=O)O)C(=O)N[C@@H](C)C(=O)N[C@@H](Cc1ccc(O)cc1)C(=O)N[C@H](C(=O)N[C@@H](CC(=O)O)C(=O)N[C@@H](CC(C)C)C(=O)N[C@@H](CCCCN)C(=O)N[C@@H](CCC(=O)O)C(=O)N[C@@H](CC(C)C)C(=O)O)[C@@H](C)CC | Spike glycoprotein | cell-cell fusion, inhibitor, luciferase fusion | 293T donor, Huh-7 target | 16 h, 37 °C | 824 |
| CC(C)C[C@H](NC(=O)[C@@H]1CCC(=O)N1)C(=O)N[C@H]1CSSC[C@@H](C(=O)O)NC(=O)[C@H](Cc2c[nH]c3ccccc23)NC(=O)[C@@H]2CSSC[C@H](NC1=O)C(=O)NCC(=O)N[C@@H](Cc1ccc(O)cc1)C(=O)N[C@@H](CCCCN)C(=O)N[C@@H](CC(C)C)C(=O)N2 | SLC6A2 (Homo sapiens, UniProt P23975) | noradrenaline transport, inhibitor, fluorescent substrate uptake | HEK293 expressing human NET | 30 min, 37 °C | 2530 ± 530 |
| C[C@@H]1NC(=O)[C@H](CCCNC(=N)N)NC(=O)[C@@H]2CSSC[C@@H]3NC(=O)[C@H](CO)NC(=O)[C@H](CO)NC(=O)CNC(=O)[C@H](CCCCN)NC(=O)[C@H](CCCNC(=N)N)NC(=O)[C@H](CCCCN)NC(=O)[C@@H](N)CSSC[C@H](NC(=O)[C@H](CSSC[C@@H](C(N)=O)NC(=O)[C@H](CCCCN)NC(=O)CNC1=O)NC(=O)[C@H](CC(=O)O)NC(=O)[C@H](Cc1ccc(O)cc1)NC(=O)[C@H](CO)NC(=O)[C@H]([C@@H](C)O)NC(=O)[C@H](CCCNC(=N)N)NC(=O)[C@H](CCCNC(=N)N)NC3=O)C(=O)N[C@@H]([C@@H](C)O)C(=O)NCC(=O)N[C@@H](CO)C(=O)N2 | Cacna1b with α2δ, β3 subunits | Ba2+ current, inhibitor, whole-cell patch clamp | HEK293 expressing α2δ and β3 | 22 °C, together with: Ba2+ 20 mM | 87 |
| O=C(c1ccc(Cl)cc1)n1cnc2ccccc21 | Enoyl-[acyl-carrier-protein] reductase [NADH] (Francisella tularensis subsp. tularensis, UniProt Q5NGQ3) |  |  |  | > 100000 |
| C[C@@H](O)[C@@H]1NC(=O)[C@@H]2CSSC[C@H](N)C(=O)N[C@@H](CCCCN)C(=O)N[C@@H](CCCNC(=N)N)C(=O)N[C@@H](CCCCN)C(=O)NCC(=O)N[C@@H](CO)C(=O)N[C@@H](CO)C(=O)N[C@H]3CSSC[C@H](NC(=O)[C@H](CO)NC(=O)CNC1=O)C(=O)N[C@@H](CCCNC(=N)N)C(=O)N[C@@H](CC(N)=O)C(=O)NCC(=O)N[C@@H](CCCCN)C(=O)N[C@H](C(N)=O)CSSC[C@H](NC(=O)[C@H](CC(=O)O)NC(=O)[C@H](Cc1ccc(O)cc1)NC(=O)[C@H](CO)NC(=O)[C@H]([C@@H](C)O)NC(=O)[C@H](CCCNC(=N)N)NC(=O)[C@H](CCCNC(=N)N)NC3=O)C(=O)N2 | Cacna1b with α2δ, β3 subunits | Ba2+ current, inhibitor, whole-cell patch clamp |  | together with: Ba2+ 10 mM | 14.4 |
| CC[C@H](C)[C@H](NC(=O)[C@H](C)NC(=O)[C@H](CCC(=O)O)NC(=O)[C@H](CCC(=O)O)NC(=O)[C@H](CC(C)C)NC(=O)[C@H](CCCCN)NC(=O)[C@H](CCCCN)NC(=O)[C@H](CCSC)NC(=O)[C@H](CCC(=O)O)NC(=O)[C@H](Cc1ccc(O)cc1)NC(=O)[C@H](CCC(=O)O)NC(=O)[C@H](CC(C)C)NC(=O)[C@H](CC(=O)O)NC(=O)[C@H](CC(C)C)NC(=O)[C@H](Cc1ccccc1)NC(=O)[C@H](Cc1ccccc1)NC(=O)[C@@H](NC(=O)[C@H](CC(N)=O)NC(=O)[C@@H](NC(=O)[C@H](CCC(N)=O)NC(=O)[C@H](CC(=O)O)NC(=O)[C@H](CC(C)C)NC(=O)[C@@H](N)CO)[C@@H](C)CC)C(C)C)C(=O)N[C@@H](CCCCN)C(=O)N[C@@H](CCCCN)C(=O)N[C@@H](CC(C)C)C(=O)N[C@@H](CCC(=O)O)C(=O)N[C@@H](CCC(=O)O)C(=O)N[C@H](C(=O)N[C@@H](Cc1ccc(O)cc1)C(=O)N[C@H](C(=O)N[C@@H](CC(=O)O)C(=O)N[C@@H](CC(C)C)C(=O)N[C@@H](CCCCN)C(=O)N[C@@H](CCC(=O)O)C(=O)N[C@@H](CC(C)C)C(=O)O)[C@@H](C)CC)[C@@H](C)O | Spike glycoprotein Beta variant | cell-cell fusion, inhibitor, luciferase fusion | 293T donor, Huh-7 target | 16 h, 37 °C, dual mutations | 128 |
| C#CCOc1ccc(-c2cc(C(=O)NC/C=C/S(C)(=O)=O)n[nH]2)cc1 | Polyprotein P1234, nsP2 protease (Chikungunya virus, UniProt Q5XXP4) | FRET |  |  | 100 ± 3 |
| Oc1cc(Cl)ccc1Oc1ccccc1 | Enoyl-ACP reductase FabI (Bacillus anthracis, UniProt A0A6L8PBX8) | inhibitor |  |  | 500 ± 100 |
| c1cnc2sc3c(N4CCNCC4)ncnc3c2c1 | bglR | enzyme activity, inhibitor |  |  | 44 ± 3 |
| O=C(O)C(O)=CC(=O)c1ccc2cc(O)c(O)cc2c1 | Nucleoprotein, exonuclease domain (N, Lymphocytic choriomeningitis virus, UniProt P09992) | exonuclease activity, inhibitor |  |  | 5630 ± 350 |
| CC(=O)N[C@@H](CCCCN)C(=O)N[C@@H](Cc1c[nH]c2ccccc12)C(=O)N[C@H]1CCCCNC(=O)C[C@@H](C(=O)N[C@@H](CCCNC(=N)N)C(N)=O)NC(=O)[C@H](Cc2c[nH]cn2)NC(=O)[C@H](CC(=O)O)NC(=O)[C@H](CCCNC(=N)N)NC1=O | Scn2a (Rattus norvegicus, UniProt P04775) | ion current, inhibitor, Hill equation fit |  | rat channel | 52300 ± 2800 |
| CC[C@H](C)[C@H](NC(=O)[C@H](C)NC(=O)[C@H](CCC(=O)O)NC(=O)[C@H](CCC(=O)O)NC(=O)[C@H](CC(C)C)NC(=O)[C@H](CCCCN)NC(=O)[C@H](CCCCN)NC(=O)[C@H](CCSC)NC(=O)[C@H](CCC(=O)O)NC(=O)[C@H](Cc1ccc(O)cc1)NC(=O)[C@H](CCC(=O)O)NC(=O)[C@H](CC(C)C)NC(=O)[C@H](CC(=O)O)NC(=O)[C@H](CC(C)C)NC(=O)[C@H](Cc1ccccc1)NC(=O)[C@@H](NC(=O)[C@@H](NC(=O)[C@H](CC(N)=O)NC(=O)[C@@H](NC(=O)[C@H](CCC(N)=O)NC(=O)[C@H](CC(=O)O)NC(=O)[C@H](CC(C)C)NC(=O)[C@@H](N)CO)[C@@H](C)CC)C(C)C)[C@@H](C)O)C(=O)N[C@@H](CCCCN)C(=O)N[C@@H](CCCCN)C(=O)N[C@@H](CC(C)C)C(=O)N[C@@H](CCC(=O)O)C(=O)N[C@@H](CCC(=O)O)C(=O)N[C@@H](CO)C(=O)N[C@@H](Cc1ccc(O)cc1)C(=O)N[C@H](C(=O)N[C@@H](CC(=O)O)C(=O)N[C@@H](CC(C)C)C(=O)N[C@@H](CCCCN)C(=O)N[C@@H](CCC(=O)O)C(=O)N[C@@H](CC(C)C)C(=O)O)[C@@H](C)CC | Spike glycoprotein | cell-cell fusion, inhibitor, luciferase fusion | 293T donor, Huh-7 target | 16 h, 37 °C | 1660 |
| CNc1ccc2c(n1)sc1c(N3CCNCC3)nc(NC)nc12 | bglR | enzyme activity, inhibitor |  |  | 50.5 ± 0.4 |
| CC[C@H](C)[C@H](NC(=O)[C@H](C)NC(=O)[C@H](CCC(=O)O)NC(=O)[C@H](CCC(=O)O)NC(=O)[C@H](CC(C)C)NC(=O)[C@H](CCCCN)NC(=O)[C@H](CCCCN)NC(=O)[C@H](CCSC)NC(=O)[C@H](CCC(=O)O)NC(=O)[C@H](Cc1ccc(O)cc1)NC(=O)[C@H](CCC(=O)O)NC(=O)[C@H](CC(C)C)NC(=O)[C@H](CC(=O)O)NC(=O)[C@H](CC(C)C)NC(=O)[C@H](Cc1ccccc1)NC(=O)[C@H](Cc1ccc(O)cc1)NC(=O)[C@@H](NC(=O)[C@H](CC(N)=O)NC(=O)[C@@H](NC(=O)[C@H](CCC(N)=O)NC(=O)[C@H](CC(=O)O)NC(=O)[C@H](CC(C)C)NC(=O)[C@@H](N)CO)[C@@H](C)CC)C(C)C)C(=O)N[C@@H](CCCCN)C(=O)N[C@@H](CCCCN)C(=O)N[C@@H](CC(C)C)C(=O)N[C@@H](CCC(=O)O)C(=O)N[C@@H](CCC(=O)O)C(=O)N[C@@H](C)C(=O)N[C@@H](Cc1ccc(O)cc1)C(=O)N[C@H](C(=O)N[C@@H](CC(=O)O)C(=O)N[C@@H](CC(C)C)C(=O)N[C@@H](CCCCN)C(=O)N[C@@H](CCC(=O)O)C(=O)N[C@@H](CC(C)C)C(=O)O)[C@@H](C)CC | Spike glycoprotein Beta variant | cell-cell fusion, inhibitor, luciferase fusion | 293T donor, Huh-7 target | 16 h, 37 °C, dual mutations | 189 |
| C(=C\c1ccccc1)/CN1CCN(C(c2ccccc2)c2ccccc2)CC1 | Replicase polyprotein 1ab, nsp14 (rep, Severe acute respiratory syndrome-related coronavirus, UniProt P0C6X7) | enzyme activity, inhibitor |  |  | 9100 ± 700 |
| CC[C@H](C)[C@H](NC(=O)[C@H](C)NC(=O)[C@H](CCC(=O)O)NC(=O)[C@H](CCC(=O)O)NC(=O)[C@H](CC(C)C)NC(=O)[C@H](CCCCN)NC(=O)[C@H](CCCCN)NC(=O)[C@H](CCSC)NC(=O)[C@H](CCC(=O)O)NC(=O)[C@H](Cc1ccc(O)cc1)NC(=O)[C@H](CCC(=O)O)NC(=O)[C@H](CC(C)C)NC(=O)[C@H](CC(=O)O)NC(=O)[C@H](CC(C)C)NC(=O)[C@H](Cc1ccccc1)NC(=O)[C@H](Cc1ccccc1)NC(=O)[C@@H](NC(=O)[C@H](CC(N)=O)NC(=O)[C@@H](NC(=O)[C@H](CCC(N)=O)NC(=O)[C@H](CC(=O)O)NC(=O)[C@H](CC(C)C)NC(=O)[C@@H](N)CO)[C@@H](C)CC)C(C)C)C(=O)N[C@@H](CCCCN)C(=O)N[C@@H](CCCCN)C(=O)N[C@@H](CC(C)C)C(=O)N[C@@H](CCC(=O)O)C(=O)N[C@@H](CCC(=O)O)C(=O)N[C@@H](C)C(=O)N[C@@H](Cc1ccc(O)cc1)C(=O)N[C@H](C(=O)N[C@@H](CC(=O)O)C(=O)N[C@@H](CC(C)C)C(=O)N[C@@H](CCCCN)C(=O)N[C@@H](CCC(=O)O)C(=O)N[C@@H](CC(C)C)C(=O)O)[C@@H](C)CC | Spike glycoprotein | cell-cell fusion, inhibitor, luciferase fusion | 293T donor, Huh-7 target | 16 h, 37 °C, dual mutations | 2210 |
| NC(=O)CCOc1c(SSc2cnn(-c3ccccc3)c(=O)c2OCCC(N)=O)cnn(-c2ccccc2)c1=O | Sortase A (Bacillus anthracis str. H9401, UniProt P0DPQ5) | inhibitor | Bacillus anthracis |  | 11900 ± 700 |

A few entries again:
| SMILES | target | test | system | conditions | IC50 [nM] |
| --- | --- | --- | --- | --- | --- |
| Oc1cc(Cl)ccc1Oc1ccccc1 | Enoyl-ACP reductase FabI (Bacillus anthracis, UniProt A0A6L8PBX8) | inhibitor |  |  | 500 ± 100 |
| c1cnc2sc3c(N4CCNCC4)ncnc3c2c1 | bglR | enzyme activity, inhibitor |  |  | 44 ± 3 |
